Measured values of several laboratories.
Each line is one published result; not all experiments were run side by side. ± gives the spread as reported. Converted amounts (≈) assume the structure as drawn.

`[2H]C([2H])([2H])NC(=O)c1ccc(N2C(=S)N(c3ccc(C#N)c(C(F)(F)F)c3)C(=O)C2(C)C)cc1F` has an adverse events of 1 occurrences (healthy men; oral, 160 mg, 50 days, fasting, soft capsules).
`CN1CCC[C@]1(C)/C=C/S(=O)(=O)NC(=O)Nc1c2c(cc3c1CCC3)CCC2` — result for “amount recovered in urine”: 201 mg (human, urine; oral, 400 mg single dose).
`O=C(O)c1cccc(S(=O)(=O)Nc2ccccc2)c1` — result for “Cmax metabolic ratio”: 0.117 (human, normal liver function, plasma; intravenous, 400 mg/m^2 belinostat, cycle 1 day -7, geometric mean; baseline: metabolite over belinostat).
`CCCC[C@H](NC(=O)CNC(=O)CNC(=O)CN1CCN(CC(=O)O)CCN(CC(=O)O)CCN(CC(=O)O)CC1)C(=O)N[C@H]1CC(=O)NCCCC[C@@H](C(N)=O)NC(=O)[C@H](Cc2c[nH]c3ccccc23)NC(=O)[C@H](CCCNC(=N)N)NC(=O)[C@@H](Cc2ccccc2)NC(=O)[C@H](Cc2c[nH]cn2)NC1=O` [gallium-67 labelled]: “tumour to tissue ratio” 2.4 (female C57 mice, B16/F1 melanoma; intravenous, 0.037 MBq, 4 h; baseline: tumour over kidney).
`N=C(N)NCCC[C@@H]1NC(=O)[C@H](Cc2c[nH]c3ccccc23)NC(=O)[C@@H](CC2CCCCC2)NC(=O)[C@@H]2CCCN2C(=O)[C@@H](NC(=O)CCc2ccccc2)CCCNC1=O`: “beta elimination rate constant” 0.35 h⁻¹ (C57BL/6J mouse, spinal cord; intravenous, 1 mg/kg, single dose, two-compartment model).
With `CC[C@H](C)[C@H](NC(=O)[C@H](Cc1ccccc1)NC(=O)[C@H](CC(=O)O)NC(=O)[C@@H]1CNC(=O)NCCCC[C@H](NC(=O)[C@H](CC(C)C)NC(=O)[C@H](CCCNC(=N)N)NC(=O)[C@H](CCSC)NC(=O)[C@H](C)N)C(=O)N[C@@H](CCCCN)C(=O)N[C@@H](Cc2ccccc2)C(=O)N[C@@H](Cc2ccccc2)C(=O)N1)C(=O)N[C@@H](CC(C)C)C(=O)N[C@@H](CCC(N)=O)C(=O)N[C@@H](CCCNC(=N)N)C(=O)N[C@@H](CCCCN)C(=O)N[C@@H](CCCCN)C(=O)O` the helicity was 33.1% (circular dichroism; 20% TFE in PBS; 200 µM, pH 7.4, 25 °C).
For `CC(=O)N[C@H](CSSC[C@H](N)C(=O)O)C(=O)N[C@H](C)C(=O)N[C@H](CCCNC(=N)N)C(=O)N[C@H](CCCNC(=N)N)C(=O)N[C@H](CCCNC(=N)N)C(=O)N[C@H](C)C(=O)N[C@H](CCCNC(=N)N)C(N)=O`, anti-drug antibodies read “not detected” (ELISA; healthy male human, serum; all dose levels).
With `O=C(Cc1ccccc1)Nc1nc2ccccc2n1Cc1ccccc1` the aqueous solubility was 1.2 µg/mL (≈ 3.51 µM) (shake-flask LC-MS/MS; water).
Under “cartilage uptake ratio”, `C[C@H](NC(=O)c1ccc2c(c1)C(=O)OC21c2ccc(O)cc2Oc2cc(O)ccc21)C(=O)N[C@@H](CCCCN)C(=O)N[C@@H](C)C(=O)N[C@@H](CCCCN)C(=O)N[C@@H](C)C(=O)N[C@@H](CCCCN)C(=O)N[C@@H](C)C(=O)N[C@@H](CCCCN)C(=O)N[C@@H](C)C(=O)N[C@@H](CCCCN)C(=O)N[C@@H](C)C(=O)N[C@@H](CCCCN)C(=O)N[C@@H](C)C(=O)N[C@@H](CCCCN)C(=O)N[C@@H](C)C(=O)N[C@@H](Cc1ccccc1)C(=O)N[C@@H](C)C(=O)N[C@@H](Cc1ccccc1)C(=O)N[C@@H](C)C(=O)N[C@@H](Cc1ccccc1)C(=O)O` is recorded as roughly 24 (bovine, healthy cartilage explants; 30 µM, 24 h, 37 °C, 5-FAM labelled; baseline: tissue over bath concentration).
With `O=C(CCC(C(=O)[O-])N1CCN(C(CCC(=O)NCC(O)CO)C(=O)[O-])Cc2cccc(n2)CN(C(CCC(=O)NCC(O)CO)C(=O)[O-])CC1)NCC(O)CO.[153Gd+3]` (centres unmarked) the excreted radioactivity was 93.9% (Beagle dog, urine; intravenous, 0.2 mmol Gd/kg, 168 h; baseline: dose).
For `CN(Cc1ccc(F)cc1)Cc1cc(=O)oc2cc(O)ccc12`, “remaining intact compound” read greater than 99% (human serum; 0.5 mM, 120 min).
For `O=C([O-])CN1CCN(CC(=O)[O-])CCN(CC(=O)NCC2CCC(C(=O)NC(Cc3ccc4ccccc4c3)C(=O)NCCCCC(NC(=O)NC(CCC(=O)O)C(=O)O)C(=O)O)CC2)CCN(CC(=O)[O-])CC1.[44Sc+3]` (centres unmarked), “organ absorbed dose” read 0.456 mSv/MBq (PET/CT dosimetry, OLINDA/EXM; human, kidneys).
The Tmax (median) of `Cn1cc(C(N)=O)c(NC2C3CC4CC2CC(O)(C4)C3)c2ccnc1-2` (centres unmarked) is reported as 4 h (Japanese adults, moderate hepatic impairment, plasma; oral, 150 mg single dose).
With `O=C(O)C1CN(Cc2ccc(-c3noc(-c4ccc(OCC[18F])c(C(F)(F)F)c4)n3)cc2)C1` the tissue uptake was 0.178 ± 0.039 %ID/g (male Sprague-Dawley rat, blood; intravenous, 120 min).
The remaining compound of `COc1cc(NC(C)=O)c2c(c1O)-c1c(OC)c(OC)cc3c1C(C2)N(C)CC3` (centres unmarked) is reported as 89.5 ± 2.2% (rat lung homogenate; 0.5 µg/mL, 40 d, -20 °C, long-term storage).
With `COc1ccc(/C=C/c2ccc(-c3ccc(C)cn3)nc2)cc1` the fluorescence lifetime was 0.76 ns (TCSPC; DMF).
`CC1=C(/C=C/C(=O)N2CCN(C(N)=O)CC2)C(C)(C)CCC1` gave a Cmax of 4.79 nmol/g (male mice, retina; oral, 20 mg/kg).
`CC(C)c1cnc(-c2cc(Cl)ccc2F)cc1Nc1ccncc1C(=O)NC(CO)CO`: “patients with treatment-related adverse event” 0% (monotherapy, measured: fatigue; human patients; oral, dose not given, grade 2, phase I A).
For `O=C(O)[C@@H]1C[C@@H](O)CN1C(=O)[C@@H]1CCCN1`, the log beta was 11 (potentiometric titration; 40 °C, MAH-1 complex, added: Fe(III)).
Under “remaining parent compound”, `Cn1cc(-c2ccnc(N)n2)c2ccccc21` is recorded as 88% (LC-MS; human liver microsomes; 3 µM, 60 min, added: sulfaphenazole 6 µM; baseline: no inhibitor).
For `Cn1c(=O)oc2ccc(-c3ccc(CC(C#N)NC(=O)C4CNCCCO4)c(F)c3)cc21` (centres unmarked), “mouth ulceration incidence” read 11.1% (human; oral, 20 mg once daily, treatment-related AE, multiple ascending dose).
`C[C@]12C[C@H](c3ccc(S(C)(=O)=O)cc3)C3=C4CCC(=O)C=C4CC[C@H]3[C@@H]1CC[C@@]2(O)C(F)(F)C(F)(F)F` gave an aqueous solubility of 9 µg/mL (≈ 16.5 µM) (nephelometry).
With `CCCCCCCCCC(O)CC(=O)CCc1ccc(O)c(OC)c1` (centres unmarked) the elimination half-life was 5.6 h (healthy Indonesian humans, plasma; oral, 2 g red ginger suspension, single dose).
The CC50 of `C#CCn1c2ccc([N+](=O)[O-])cc2c(=O)n1Cc1ccccc1` is reported as 4.3 ± 0.4 µM (resazurin; peritoneal macrophages, BALB/c mice; 48 h, 10% FBS).
With `CC(C)(Sc1cc[n+]([O-])cc1-c1ccc(C#N)c2ccccc12)C(=O)OC1OC(C(=O)O)C(O)C(O)C1O` (centres unmarked) the Cmax ratio was 156% (adult men, plasma; oral, 15 mg verinurad, moderate renal impairment; baseline: impaired over normal renal function).
For `O=C(CCc1ccc(CNC(C(=O)O)C2CCCCC2)cn1)NO` (centres unmarked), “accumulation ratio Cmax” read 0.835 (human, plasma; oral, 20 mg once daily, median; baseline: day 7 over day 1).

Excerpt of the above:
`O=C(O)c1cccc(S(=O)(=O)Nc2ccccc2)c1` — result for “Cmax metabolic ratio”: 0.117 (human, normal liver function, plasma; intravenous, 400 mg/m^2 belinostat, cycle 1 day -7, geometric mean; baseline: metabolite over belinostat).
`CCCC[C@H](NC(=O)CNC(=O)CNC(=O)CN1CCN(CC(=O)O)CCN(CC(=O)O)CCN(CC(=O)O)CC1)C(=O)N[C@H]1CC(=O)NCCCC[C@@H](C(N)=O)NC(=O)[C@H](Cc2c[nH]c3ccccc23)NC(=O)[C@H](CCCNC(=N)N)NC(=O)[C@@H](Cc2ccccc2)NC(=O)[C@H](Cc2c[nH]cn2)NC1=O` [gallium-67 labelled]: “tumour to tissue ratio” 2.4 (female C57 mice, B16/F1 melanoma; intravenous, 0.037 MBq, 4 h; baseline: tumour over kidney).
